Measurements collected from several papers.
Compare with care: the assays were run in different laboratories. Several values in a cell are separate wells, animals, samples, runs or records.
RAF1: RAF proto-oncogene serine/threonine-protein kinase (RAF1, Homo sapiens, UniProt P04049)

COc1cc(Nc2nc(C)cc(-c3cnn4nc(OC)ccc34)n2)cc(C(F)(F)F)c1  remaining activity (RAF1; inhibitor; 1 µM; relative to: control): 100%
C=CC(=O)N1CCCC(n2c(=O)c3ncccc3n(Cc3ccc(Oc4ccccc4)cc3)c2=O)C1 (stereo not shown)  remaining binding (RAF1; cell-free assay, competition with immobilised ligand; 1 µM): 100%
Cc1[nH]nc2c1N=C(c1ccccc1Cl)c1cnc(N3CCOCC3)cc1N2  inhibition (RAF1; enzyme activity, inhibitor; 0.5 µM): 7.2%
C=CC(=O)N1CCc2ccc(-n3c(=O)ccc4cnc5ccc(-c6cnn(C)c6)cc5c43)cc21  remaining binding (RAF1; KINOMEscan; 1 µM; relative to: DMSO control): 89%
Cc1cccc(O[C@H]2CCC[C@@H](C(C)CNCc3ccncc3)C2)c1 (relative stereo)  inhibition (RAF1; enzyme activity, inhibitor; 10 µM): -11%
CCN1CCN(Cc2ccc(NC(=O)c3ccc(C)c(NC(=O)c4cncc(-c5cccs5)c4)c3)cc2C(F)(F)F)CC1  remaining binding (RAF1; binding, competition with immobilised ligand; 1 µM): 28%
CCn1cc(C(=O)O)c(=O)c2c(N)c(F)c(NC3CCCCC3)cc21  inhibition (RAF1 (Homo sapiens, UniProt P04049, Y340E/Y341E); kinase activity; 0.1 µM, together with: ATP at Km): 0.6%
O=C=[N][Ru-4]123([n]4c5ccc(O)cc5c5c6c(c7cc(F)c[n+]1c7c54)C(=O)NC6=O)[S+]1CC[S+]2CC[S+]3CC1 (stereo not shown)  remaining activity (RAF1; enzyme activity; 100 nM, human enzyme, together with: 10 µM ATP; relative to: untreated): 111%
COc1ccc(NC(=O)Nc2ccc3c(c2)C(=O)N(C(C)CO)CC(C)C(CN(C)Cc2ccc4c(c2)OCO4)O3)cc1 (stereo not shown)  remaining binding (RAF1; binding, competition with immobilised ligand; 10 µM): 100%
Nc1ncc2c(n1)-c1c([nH]c3ccc(C4=CCOCC4)cc13)CCC2  remaining binding (RAF1; binding, competition with immobilised ligand; 1 µM): 100%
COCC12C(=O)NC3C4(C(OC)CC1O)C1CC5(O)C(OC)C(O)C(OC(C)=O)(C1C5OC(=O)c1ccccc1)C3(O)C(OC)C24 (stereo not shown)  remaining activity (RAF1 (Homo sapiens, UniProt P04049, Y340D/Y341D); kinase activity, inhibitor, ProQinase kinase profiling; 25 µM; relative to: control): 106% and 105%
O=c1c(-c2ccc(Cl)c(CN3CCOCC3)c2)coc2cc(O)ccc12  remaining activity (RAF1; enzyme activity, inhibitor; 1 µM): 86%
NC(=O)[C@@H](O)C[C@H]1CCc2sc3ncnc(O[C@H]4CC[C@H](N5CCOCC5)CC4)c3c21  inhibition (RAF1; enzyme activity, inhibitor; 10 µM): 1%

Repeated from above:
Nc1ncc2c(n1)-c1c([nH]c3ccc(C4=CCOCC4)cc13)CCC2  remaining binding (RAF1; binding, competition with immobilised ligand; 1 µM): 100%
